Assay results from different studies.
Compare with care: the assays were run in different laboratories.
Capn2: Calpain-2 catalytic subunit (Capn2, Mus musculus, UniProt O08529)
UniProt O08529, sequence (whole entry, looked up): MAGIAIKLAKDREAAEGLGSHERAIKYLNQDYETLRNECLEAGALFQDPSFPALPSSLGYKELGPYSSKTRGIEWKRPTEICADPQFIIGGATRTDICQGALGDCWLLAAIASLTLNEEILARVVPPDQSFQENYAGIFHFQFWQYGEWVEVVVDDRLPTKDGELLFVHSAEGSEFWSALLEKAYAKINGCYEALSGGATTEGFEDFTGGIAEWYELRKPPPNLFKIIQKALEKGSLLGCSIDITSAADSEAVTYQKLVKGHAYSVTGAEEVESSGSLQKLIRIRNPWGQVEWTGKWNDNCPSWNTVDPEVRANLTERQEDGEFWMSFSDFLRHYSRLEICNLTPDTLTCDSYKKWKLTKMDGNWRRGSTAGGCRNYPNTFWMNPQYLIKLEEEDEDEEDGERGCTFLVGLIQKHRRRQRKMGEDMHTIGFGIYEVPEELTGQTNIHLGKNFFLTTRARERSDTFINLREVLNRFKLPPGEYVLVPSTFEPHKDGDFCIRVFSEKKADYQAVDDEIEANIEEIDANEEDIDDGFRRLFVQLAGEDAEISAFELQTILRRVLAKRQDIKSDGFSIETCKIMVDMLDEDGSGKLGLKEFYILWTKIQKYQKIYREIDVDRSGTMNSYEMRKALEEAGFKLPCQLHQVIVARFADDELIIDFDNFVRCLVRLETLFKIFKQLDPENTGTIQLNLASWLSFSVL
CA12: Carbonic anhydrase 12 (CA12, Homo sapiens, UniProt O43570)
UniProt O43570, sequence (whole entry, looked up): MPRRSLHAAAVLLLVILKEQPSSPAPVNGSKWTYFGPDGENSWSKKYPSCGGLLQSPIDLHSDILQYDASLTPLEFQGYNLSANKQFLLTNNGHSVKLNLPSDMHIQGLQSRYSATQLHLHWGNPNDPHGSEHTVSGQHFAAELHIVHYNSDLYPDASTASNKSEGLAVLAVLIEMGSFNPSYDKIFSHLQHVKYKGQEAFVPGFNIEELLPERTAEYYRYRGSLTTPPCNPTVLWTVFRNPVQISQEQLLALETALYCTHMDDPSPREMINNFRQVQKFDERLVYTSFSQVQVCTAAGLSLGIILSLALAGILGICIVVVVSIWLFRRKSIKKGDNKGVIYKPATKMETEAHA
Chromobox protein homolog 6: Chromobox protein homolog 6 (Homo sapiens, UniProt O95503)
UniProt O95503, sequence (whole entry, looked up): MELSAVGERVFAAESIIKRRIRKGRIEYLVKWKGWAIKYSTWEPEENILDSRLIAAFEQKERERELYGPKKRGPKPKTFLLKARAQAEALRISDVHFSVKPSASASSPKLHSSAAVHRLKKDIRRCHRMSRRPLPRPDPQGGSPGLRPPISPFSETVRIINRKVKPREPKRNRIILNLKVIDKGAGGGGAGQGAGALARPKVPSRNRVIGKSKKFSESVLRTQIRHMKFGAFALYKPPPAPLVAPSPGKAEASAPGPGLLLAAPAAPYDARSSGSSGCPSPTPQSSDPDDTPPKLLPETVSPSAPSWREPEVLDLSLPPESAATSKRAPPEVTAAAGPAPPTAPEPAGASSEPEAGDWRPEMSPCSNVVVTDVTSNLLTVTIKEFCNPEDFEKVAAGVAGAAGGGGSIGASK
Chromobox protein homolog 8: Chromobox protein homolog 8 (Homo sapiens, UniProt Q9HC52)
UniProt Q9HC52, sequence (whole entry, looked up): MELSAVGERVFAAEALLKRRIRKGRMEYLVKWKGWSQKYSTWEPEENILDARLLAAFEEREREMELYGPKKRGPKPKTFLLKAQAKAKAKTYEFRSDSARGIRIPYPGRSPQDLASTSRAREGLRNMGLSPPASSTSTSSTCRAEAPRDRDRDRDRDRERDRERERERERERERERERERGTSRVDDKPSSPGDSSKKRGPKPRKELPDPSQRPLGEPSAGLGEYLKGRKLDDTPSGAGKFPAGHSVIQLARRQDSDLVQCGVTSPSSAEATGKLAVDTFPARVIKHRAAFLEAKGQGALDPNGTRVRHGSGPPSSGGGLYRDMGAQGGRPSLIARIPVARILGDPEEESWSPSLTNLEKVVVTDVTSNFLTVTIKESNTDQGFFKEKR
UniProt O95551, sequence (whole entry, looked up): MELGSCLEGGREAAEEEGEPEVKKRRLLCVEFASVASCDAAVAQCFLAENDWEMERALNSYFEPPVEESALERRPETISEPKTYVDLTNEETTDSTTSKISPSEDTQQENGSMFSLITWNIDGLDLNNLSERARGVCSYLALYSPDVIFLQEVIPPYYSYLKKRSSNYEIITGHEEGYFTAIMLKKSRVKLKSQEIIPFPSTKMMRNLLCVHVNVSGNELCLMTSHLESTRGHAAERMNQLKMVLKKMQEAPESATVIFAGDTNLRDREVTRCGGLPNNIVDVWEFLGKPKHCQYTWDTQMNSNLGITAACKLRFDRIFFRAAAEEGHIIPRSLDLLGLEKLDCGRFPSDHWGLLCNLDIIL
UniProt P00519, sequence (whole entry, looked up): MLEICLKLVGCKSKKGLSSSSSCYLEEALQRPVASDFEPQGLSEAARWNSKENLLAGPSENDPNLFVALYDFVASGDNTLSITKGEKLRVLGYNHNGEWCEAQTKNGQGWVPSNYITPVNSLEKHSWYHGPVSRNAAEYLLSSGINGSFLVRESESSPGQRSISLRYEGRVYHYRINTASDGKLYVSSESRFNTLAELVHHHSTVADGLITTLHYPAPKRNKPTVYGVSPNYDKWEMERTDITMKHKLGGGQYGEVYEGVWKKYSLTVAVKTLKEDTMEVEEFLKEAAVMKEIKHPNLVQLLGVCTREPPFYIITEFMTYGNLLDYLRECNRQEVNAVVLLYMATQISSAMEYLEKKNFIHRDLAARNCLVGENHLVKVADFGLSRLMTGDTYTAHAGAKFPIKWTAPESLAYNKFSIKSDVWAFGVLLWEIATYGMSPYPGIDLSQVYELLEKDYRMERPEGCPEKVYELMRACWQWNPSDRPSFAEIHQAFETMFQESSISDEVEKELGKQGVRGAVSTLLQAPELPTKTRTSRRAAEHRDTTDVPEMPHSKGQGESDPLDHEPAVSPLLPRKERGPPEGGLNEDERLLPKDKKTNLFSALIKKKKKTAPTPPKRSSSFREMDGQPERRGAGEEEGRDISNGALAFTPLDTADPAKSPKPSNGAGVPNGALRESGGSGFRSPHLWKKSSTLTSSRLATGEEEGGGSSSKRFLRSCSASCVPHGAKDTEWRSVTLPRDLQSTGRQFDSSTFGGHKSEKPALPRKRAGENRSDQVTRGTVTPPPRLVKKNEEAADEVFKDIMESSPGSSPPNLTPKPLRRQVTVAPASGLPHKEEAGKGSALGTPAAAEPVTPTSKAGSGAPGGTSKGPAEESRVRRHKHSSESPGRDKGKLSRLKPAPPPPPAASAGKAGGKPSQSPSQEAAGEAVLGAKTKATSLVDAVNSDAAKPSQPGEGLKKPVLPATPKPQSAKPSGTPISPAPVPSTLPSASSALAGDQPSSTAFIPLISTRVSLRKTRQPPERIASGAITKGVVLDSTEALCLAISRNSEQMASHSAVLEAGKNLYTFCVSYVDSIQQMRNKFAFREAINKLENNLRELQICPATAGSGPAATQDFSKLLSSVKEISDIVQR
UniProt O75116, sequence (whole entry, looked up): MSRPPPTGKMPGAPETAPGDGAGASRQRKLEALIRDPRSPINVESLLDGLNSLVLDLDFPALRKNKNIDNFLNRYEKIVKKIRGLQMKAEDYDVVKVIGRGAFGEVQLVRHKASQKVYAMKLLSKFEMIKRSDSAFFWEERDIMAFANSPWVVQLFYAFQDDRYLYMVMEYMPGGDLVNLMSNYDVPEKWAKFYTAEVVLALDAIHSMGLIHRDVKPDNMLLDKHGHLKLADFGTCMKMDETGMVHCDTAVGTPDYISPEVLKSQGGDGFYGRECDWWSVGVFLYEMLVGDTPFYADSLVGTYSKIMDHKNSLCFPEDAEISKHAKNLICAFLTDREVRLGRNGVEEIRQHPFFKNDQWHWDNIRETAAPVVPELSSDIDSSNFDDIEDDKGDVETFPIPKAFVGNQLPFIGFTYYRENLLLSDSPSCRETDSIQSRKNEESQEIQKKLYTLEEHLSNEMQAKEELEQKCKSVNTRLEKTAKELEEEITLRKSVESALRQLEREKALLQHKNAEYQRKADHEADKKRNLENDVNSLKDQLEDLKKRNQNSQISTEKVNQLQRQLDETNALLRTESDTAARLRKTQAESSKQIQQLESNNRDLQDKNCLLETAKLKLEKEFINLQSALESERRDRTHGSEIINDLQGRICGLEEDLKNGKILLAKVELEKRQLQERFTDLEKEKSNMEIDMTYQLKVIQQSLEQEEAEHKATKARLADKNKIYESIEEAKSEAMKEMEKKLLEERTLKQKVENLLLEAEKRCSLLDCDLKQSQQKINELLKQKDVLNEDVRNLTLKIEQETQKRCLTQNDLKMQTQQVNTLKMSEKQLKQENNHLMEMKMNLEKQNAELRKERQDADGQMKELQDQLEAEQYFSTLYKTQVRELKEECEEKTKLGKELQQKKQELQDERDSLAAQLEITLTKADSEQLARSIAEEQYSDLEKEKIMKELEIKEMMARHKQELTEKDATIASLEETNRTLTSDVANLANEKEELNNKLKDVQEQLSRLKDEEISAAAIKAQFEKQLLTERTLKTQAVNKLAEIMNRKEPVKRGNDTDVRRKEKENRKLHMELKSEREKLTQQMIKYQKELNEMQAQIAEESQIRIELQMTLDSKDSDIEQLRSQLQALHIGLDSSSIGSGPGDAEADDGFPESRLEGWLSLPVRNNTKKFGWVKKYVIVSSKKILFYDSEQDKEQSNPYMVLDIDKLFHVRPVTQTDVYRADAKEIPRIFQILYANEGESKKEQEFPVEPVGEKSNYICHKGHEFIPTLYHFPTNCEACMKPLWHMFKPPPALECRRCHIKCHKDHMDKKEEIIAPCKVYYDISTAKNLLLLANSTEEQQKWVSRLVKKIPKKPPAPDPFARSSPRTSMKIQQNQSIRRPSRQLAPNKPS

CCC(NC(=O)C(CC(C)C)NC(=O)Nc1ccncc1)C(=O)C(=O)NCc1cc(OC)cc(OC)c1 (stereo not shown)
selectivity ratio (Capn2; mouse pons-cerebellum membranes; together with: calcium 2 mM; baseline: IC50 calpain-1 over calpain-2): 0.7

N#Cc1ccc(-c2ccc(/C=N/OCc3ccc(-c4nc5cc(-c6ccccc6)ccn5c4Nc4ccc(C(=O)O)cc4)cc3)cc2)nc1
selectivity ratio (TDP2 (Homo sapiens, UniProt O95551); baseline: TDP1 potency over TDP2 potency): 74 fold

NS(=O)(=O)c1ccc(Nc2nc3nccc(-c4ccc5ccccc5c4)n3n2)cc1
selectivity ratio (CA12; stopped-flow CO2 hydrase; baseline: Ki hCA IV over Ki CA12): 131

NS(=O)(=O)c1cc(-c2ccccc2)cc(-c2ccccc2)c1
selectivity ratio (CA12; thermal shift; baseline: Kd CA II over Kd CA XII): 70

CCC(NC(=O)C(CC(C)C)NC(=O)NCc1ccccc1)C(=O)C(=O)NCc1cc(F)cc(OC)c1 (stereo not shown)
selectivity ratio (Capn2; mouse pons-cerebellum membranes; together with: calcium 2 mM; baseline: IC50 calpain-1 over calpain-2): 1.9

NS(=O)(=O)c1c(F)c(F)c(SCCc2ccc(C(=O)O)cc2)c(F)c1F
selectivity ratio (CA12; thermal shift; baseline: Kd CA XII over Kd CA II): 42

CCC(NC(=O)C(CC(C)C)NC(=O)NCc1ccccc1)C(=O)C(=O)NCc1cc(OC)cc(OC)c1 (stereo not shown)
selectivity ratio (Capn2; mouse pons-cerebellum membranes; together with: calcium 2 mM; baseline: IC50 calpain-1 over calpain-2): 13

COCCOc1cc2ncnc(Nc3cccc(-c4cn(CCc5ccc(S(N)(=O)=O)cc5)nn4)c3)c2cc1OCCOC
selectivity ratio (CA12; stopped-flow CO2 hydration; baseline: Ki hCA I over Ki hCA XII): 2.92

CCC(NC(=O)C(CC(C)C)NC(=O)CCc1ccccc1)C(=O)C(=O)NCc1cccc(OC)c1 (stereo not shown)
selectivity ratio (Capn2; mouse pons-cerebellum membranes; together with: calcium 2 mM; baseline: IC50 calpain-1 over calpain-2): 24.1

NC(=O)C1CCNC(=O)C(CCCNC(=O)c2cnccn2)NC(=O)C(Cc2ccco2)NC(=O)C(CC2CC2)NC(=O)C=CC(=O)N1 (stereo not shown)
selectivity ratio (ABL1 (Homo sapiens, UniProt P00519); kinase activity; baseline: Abl IC50 over Src IC50): > 50 fold

C[C@H](NC(=O)[C@H](Cc1ccccc1)NC(=O)c1ccc(C(F)(F)F)cc1)C(=O)N[C@H](C(=O)N[C@@H](CCCC[N+](C)(C)C)C(=O)N[C@@H](CO)C(N)=O)C1CCCC1
selectivity ratio (Chromobox protein homolog 6; competitive fluorescence polarization; baseline: Cbx7 over Chromobox protein homolog 6): 9 fold

COc1ccccc1/C=N/NC(=O)CSc1nc2ccccc2c(=O)n1CCc1ccc(S(N)(=O)=O)cc1
selectivity ratio (CA12; inhibitor, stopped-flow; baseline: Ki hCA I over Ki hCA XII): 25.6

C[C@@H](N)C1CCN(S(=O)(=O)c2cccc3c(=O)[nH]ccc23)CC1
selectivity ratio (ROCK2 (Homo sapiens, UniProt O75116); enzyme activity, inhibitor, radiometric filter binding; together with: ATP at Km; baseline: IC50 ROCK1 over IC50 target): 17 fold

CN(C)CCNC(=O)c1cccc2c(NCCCCc3c(N)nc(N)nc3N)c3ccccc3nc12
selectivity ratio (RNA G, G–G mismatch; binding, ITC; baseline: Kd RNA A over Kd RNA G): 29

NS(=O)(=O)c1c(F)c(F)c(S(=O)(=O)CCO)c(NC2CCCCCCCCCCC2)c1F
selectivity ratio (CA12; thermal shift; baseline: Kd CA XII over Kd CA II): 0.1

C/C(=N\NC(=O)CSc1nc2ccccc2c(=O)n1CCc1ccc(S(N)(=O)=O)cc1)c1ccccc1
selectivity ratio (CA12; inhibitor, stopped-flow; baseline: Ki hCA II over Ki hCA XII): 5.32

CCN(CC)CCCC[C@H](NC(=O)[C@@H](NC(=O)[C@H](C)NC(=O)[C@H](Cc1ccccc1)NC(=O)c1ccc(C(F)(F)F)cc1)C1CCCC1)C(=O)N[C@@H](CO)C(N)=O
selectivity ratio (Chromobox protein homolog 6; competitive fluorescence polarization; baseline: Cbx7 over Chromobox protein homolog 6): 5.7 fold

COc1cc(-c2ccnc3nc(Nc4ccc(S(N)(=O)=O)cc4)nn23)cc(OC)c1OC
selectivity ratio (CA12; stopped-flow CO2 hydrase; baseline: Ki hCA IV over Ki CA12): 50.1

NS(=O)(=O)c1c(F)c(F)c(S(=O)(=O)CCc2ccccc2)c(NC2CCCCCCCCCCC2)c1F
selectivity ratio (CA12; thermal shift; baseline: Kd CA II over Kd CA XII): 11

CCC(NC(=O)C(CC(C)C)NC(=O)CCc1ccc(C#N)cc1)C(=O)C(=O)NCc1cc(OC)cc(OC)c1 (stereo not shown)
selectivity ratio (Capn2; mouse pons-cerebellum membranes; together with: calcium 2 mM; baseline: IC50 calpain-1 over calpain-2): 10.1

NS(=O)(=O)c1c(F)c(F)c(S(=O)(=O)CCc2ccccc2)c(N[C@H]2CCc3ccccc32)c1F
selectivity ratio (CA12; thermal shift; baseline: Kd CA XII over Kd CA II): 14

C[C@H](NC(=O)[C@H](Cc1ccccc1)NC(=O)c1ccc(C(C)(C)C)cc1)C(=O)N[C@H](C(=O)N[C@@H](CCCC[N+](C)(C)C)C(=O)N[C@@H](CO)C(N)=O)C1CCCC1
selectivity ratio (Chromobox protein homolog 8; competitive fluorescence polarization; baseline: Cbx7 over Chromobox protein homolog 8): 28 fold

COc1cccc(/C(C)=N/NC(=O)CSc2nc3ccccc3c(=O)n2CCc2ccc(S(N)(=O)=O)cc2)c1
selectivity ratio (CA12; inhibitor, stopped-flow; baseline: Ki hCA I over Ki hCA XII): 20.4

NS(=O)(=O)c1c(F)c(F)cc(F)c1NC1CCCCCCC1
selectivity ratio (CA12; thermal shift; baseline: Kd CA XII over Kd CA II): 3.1

COC(=O)[C@@]1(C)C=C(C(=O)Nc2cccc(C(=O)Nc3ccc(Nc4nccc(-c5cccnc5)n4)c(C)c3)c2)C(=O)CC1
selectivity ratio (MAPK14 (Homo sapiens, UniProt Q16539); baseline: JNK1 over MAPK14): ~1000 fold

Cc1cc(S(N)(=O)=O)c(Cl)cc1NC1CCCCC1
selectivity ratio (CA12; thermal shift; baseline: Kd CA II over Kd CA XII): 12

COc1ccc(/C(C)=N/NC(=O)CSc2nc3ccccc3c(=O)n2CCc2ccc(S(N)(=O)=O)cc2)cc1
selectivity ratio (CA12; inhibitor, stopped-flow; baseline: Ki hCA II over Ki hCA XII): 2.19

CC(C)C[C@H](NC(=O)[C@@H](NC(=O)[C@H](Cc1ccccc1)NC(=O)c1ccc(C(C)(C)C)cc1)C(C)C)C(=O)N[C@@H](CCCCN(C)C1CC2CCC1C2)C(=O)N[C@@H](CO)C(N)=O (stereo partly shown)
selectivity ratio (Chromobox protein homolog 8; TR-FRET; baseline: CBX8 over CBX7): 21 fold

COC(=O)CCCNC(=O)c1cc(S(N)(=O)=O)c(Cl)cc1NC1CCCCC1
selectivity ratio (CA12; thermal shift; baseline: Kd CA II over Kd CA XII): 27

NS(=O)(=O)c1ccc(CCn2c(SCC(=O)N/N=C/c3ccccc3O)nc3ccccc3c2=O)cc1
selectivity ratio (CA12; inhibitor, stopped-flow; baseline: Ki hCA II over Ki hCA XII): 2.7

COc1ccc(CC[C@H]2OC(=O)[C@@H]3CCCCN3C(=O)C(=O)C(C)(C)COC(=O)/C=C/CCN(C)C(=O)[C@H](CC(C)C)N(C)C(=O)[C@@H]3CCCN3C(=O)[C@H](Cc3ccccc3)N(C)C(=O)[C@H](c3ccccc3)NC(=O)CCC(=O)Nc3cccc2c3)cc1OC
selectivity ratio (FKBP4 (Homo sapiens, UniProt Q02790); enzyme activity, inhibitor; baseline: FKBP12 potency over FKBP4 potency): ~40 fold

Some of these lines once more:
CCC(NC(=O)C(CC(C)C)NC(=O)CCc1ccc(C#N)cc1)C(=O)C(=O)NCc1cc(OC)cc(OC)c1 (stereo not shown)
selectivity ratio (Capn2; mouse pons-cerebellum membranes; together with: calcium 2 mM; baseline: IC50 calpain-1 over calpain-2): 10.1

NS(=O)(=O)c1c(F)c(F)c(S(=O)(=O)CCc2ccccc2)c(N[C@H]2CCc3ccccc32)c1F
selectivity ratio (CA12; thermal shift; baseline: Kd CA XII over Kd CA II): 14

C[C@H](NC(=O)[C@H](Cc1ccccc1)NC(=O)c1ccc(C(C)(C)C)cc1)C(=O)N[C@H](C(=O)N[C@@H](CCCC[N+](C)(C)C)C(=O)N[C@@H](CO)C(N)=O)C1CCCC1
selectivity ratio (Chromobox protein homolog 8; competitive fluorescence polarization; baseline: Cbx7 over Chromobox protein homolog 8): 28 fold

COc1cccc(/C(C)=N/NC(=O)CSc2nc3ccccc3c(=O)n2CCc2ccc(S(N)(=O)=O)cc2)c1
selectivity ratio (CA12; inhibitor, stopped-flow; baseline: Ki hCA I over Ki hCA XII): 20.4

NS(=O)(=O)c1c(F)c(F)cc(F)c1NC1CCCCCCC1
selectivity ratio (CA12; thermal shift; baseline: Kd CA XII over Kd CA II): 3.1
